Measured values of several laboratories.
Each line is one published result; not all experiments were run side by side. “And” joins repeats or separate records; there may be more than shown. ± marks the error that the study gave.
Chain of UniProt Q16853 (whole entry, looked up): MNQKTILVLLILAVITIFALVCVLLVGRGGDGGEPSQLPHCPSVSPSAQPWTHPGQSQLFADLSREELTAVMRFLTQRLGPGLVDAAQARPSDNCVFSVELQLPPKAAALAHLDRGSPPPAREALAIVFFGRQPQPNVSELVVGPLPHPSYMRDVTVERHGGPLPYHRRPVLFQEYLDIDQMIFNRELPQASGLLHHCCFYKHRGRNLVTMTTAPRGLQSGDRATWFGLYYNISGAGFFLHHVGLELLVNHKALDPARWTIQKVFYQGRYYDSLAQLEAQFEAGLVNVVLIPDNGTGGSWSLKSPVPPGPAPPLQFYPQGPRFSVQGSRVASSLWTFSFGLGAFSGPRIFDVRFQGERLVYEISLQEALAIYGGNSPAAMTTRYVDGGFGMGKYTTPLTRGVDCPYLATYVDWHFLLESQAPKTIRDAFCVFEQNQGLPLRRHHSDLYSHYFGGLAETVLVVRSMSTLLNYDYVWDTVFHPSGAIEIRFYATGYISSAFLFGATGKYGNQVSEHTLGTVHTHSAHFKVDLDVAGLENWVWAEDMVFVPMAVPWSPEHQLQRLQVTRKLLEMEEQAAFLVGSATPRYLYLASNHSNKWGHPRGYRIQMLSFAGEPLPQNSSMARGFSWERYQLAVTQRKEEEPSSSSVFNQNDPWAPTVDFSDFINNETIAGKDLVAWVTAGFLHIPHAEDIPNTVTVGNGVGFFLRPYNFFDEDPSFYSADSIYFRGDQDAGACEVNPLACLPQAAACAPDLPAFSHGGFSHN

SMILES = Cc1cnc(Nc2ccc(OCCN3CCCC3)cc2)nc1Nc1cccc(S(=O)(=O)NC(C)(C)C)c1; target or system = MDCK; conditions = 1 µM, 90 min, pH 6.5 apical, 7.4 basolateral; endpoint = Papp A to B; value = 0.31 ×10⁻⁶ cm/s
SMILES = NCc1cc2c(cc1F)C(=O)N(C1CCC(=O)NC1=O)C2 (stereo not drawn); target or system = AOC3 (Homo sapiens, UniProt Q16853); assay = substrate, LC-MS/MS; test system = cirrhotic human liver lysate; conditions = 31.25 µM, 60 min, pH 7.4; endpoint = concentration; value = 3720 ng/mL and 3870 ng/mL
SMILES = N[C@@H](CS)C(=O)O; target or system = Escherichia coli; test system = MG1655, M9 medium; conditions = 1 mM, 1 mM equimolar amino acid mixture; endpoint = uptake half-time; value = 4.9 h
SMILES = CCOc1c([C@H](C)n2nc(C)c3c(N)ncnc32)cc(Cl)c(F)c1[C@@H]1CNC(=O)C1; test system = patients, monotherapy; conditions = oral, 30 mg once daily, cycle 1 day 1; endpoint = AUC(0-last) geometric mean; value = 13.1 µM·h
SMILES = Cc1cc(Nc2ccc(S(F)(F)(F)(F)F)cc2)n2nc(C(C)(F)F)nc2n1; target or system = Plasmodium vivax; assay = 12-lead ECG; test system = malaria patients; conditions = oral, 800 mg, increase above 30 ms; endpoint = patients with QTcF increase; value = 16.7%
SMILES = CC[C@H](CO)N(CCN(N=O)[C@H](CC)CO)N=O; target or system = Salmonella typhimurium; assay = plate incorporation; test system = TA1535, water; conditions = 3750 µg/plate, without S9 test 2; endpoint = revertant colonies per plate; value = 25.7 ± 10
SMILES = CCN1/C(=C/C(C)=O)Sc2ccc(F)cc21; test system = cynomolgus monkey; conditions = oral, 10 mg/kg, 1 h post-dose; endpoint = QRS duration; value = 35 ± 2 ms
SMILES = CC(C)n1nccc1-c1ncccc1COc1cccc(O)c1C=O; target or system = MDCK; conditions = 1 µM, 90 min, pH 7.4 apical, 7.4 basolateral, apical to basolateral; endpoint = mass recovery; value = 85 ± 5%
SMILES = Cc1cc(N)c2c(OCC(C)(C)C(=O)NC(C)C)cccc2n1; target or system = Salmonella typhimurium; assay = reverse mutation, plate incorporation; test system = TA98; conditions = 1 µg/plate, without S9; endpoint = mean revertant colonies; value = 24 colonies/plate
SMILES = CC(=O)Nc1cccc(-n2c(=O)n(C3CC3)c(=O)c3c(Nc4ccc(I)cc4F)n(C)c(=O)c(C)c32)c1; target or system = MeWo; assay = resazurin; conditions = concentration not given, 72 h, unit not given; scale = reference: DMSO; endpoint = viability; value = 0.882 and 0.541 and 0.973 and 0.722 and 0.525 and 0.956
SMILES = C[C@H](N)C(=O)O; target or system = Escherichia coli; test system = MG1655, M9 medium; conditions = 1 mM, 1 mM equimolar amino acid mixture; endpoint = uptake half-time; value = 23.5 h
SMILES = CC(=O)Nc1ccc(O)cc1; target or system = MDCK; conditions = 1 µM, 90 min, pH 6.5 apical, 7.4 basolateral, apical to basolateral; endpoint = mass recovery; value = 85 ± 5%
SMILES = CCOC(=O)C(C)c1n[nH]c2nc(N)[nH]c(=O)c2c1=O (stereo not drawn); target or system = Escherichia coli; assay = LC-MS/MS; test system = BW25113; conditions = 100 µM, 10 min, 37 °C; endpoint = intracellular accumulation; value = 9.64 ± 1.4 µM
SMILES = CCn1c(=O)c2c(nc(/C=C/c3ccc(OC)c(OC)c3)n2C)n(CC)c1=O; target or system = MDCK; conditions = 1 µM, 90 min, pH 6.5 apical, 7.4 basolateral; endpoint = Papp A to B; value = 38 ×10⁻⁶ cm/s and 23.5 ×10⁻⁶ cm/s
SMILES = Cc1cc(C(=O)NC(C)(C)COc2cccc3c2C(N)=NS(=O)(=O)N3)cc(C)n1; target or system = human peripheral blood lymphocytes; assay = CBPI, concurrent micronucleus test; conditions = 1000 µg/mL, 4 h; scale = reference: vehicle control; endpoint = cytotoxicity; value = -6%

For quick reference, copied from above:
SMILES = Cc1cnc(Nc2ccc(OCCN3CCCC3)cc2)nc1Nc1cccc(S(=O)(=O)NC(C)(C)C)c1; target or system = MDCK; conditions = 1 µM, 90 min, pH 6.5 apical, 7.4 basolateral; endpoint = Papp A to B; value = 0.31 ×10⁻⁶ cm/s
